Measurements gathered from unrelated publications.
Compare with care: the assays were run in different laboratories. “And” joins repeats or separate records; there may be more than shown. ± gives the spread as reported. No end group written: not given here.
B1: O-methyl-Tyr, C-amide; chain Y(Me)ECG-NH2 (N-terminus assumed; SMILES COc1ccc(C[C@H](N)C(=O)N[C@@H](CCC(=O)O)C(=O)N[C@@H](CS)C(=O)NCC(N)=O)cc1)

| Molecule | cell line | assay | conditions | how to read | endpoint | value |
| --- | --- | --- | --- | --- | --- | --- |
| COC(=O)c1ccc(Cl)nc1N(C)c1ccc(OC)cc1 | human tumour cell panel | cell growth, SRB | range over compounds, cells | – | GI50 | 200 to 260 nM |
| CSCC[C@@H](N)C(=O)N[C@@H](Cc1c[nH]cn1)C(=O)N[C@@H](CCCNC(=N)N)C(=O)N1CCC[C@H]1C(=O)N1CCC[C@H]1C(=O)N[C@@H](CO)C(=O)N[C@@H](C(=O)NCC(=O)N[C@@H](CO)C(=O)N[C@H](CCCNC(=N)N)C(=O)N[C@@H](C(=O)N[C@H](Cc1ccc(O)cc1)C(=O)N[C@H](CO)C(=O)N[C@H](Cc1ccccc1)C(=O)O)C(C)C)[C@H](C)O | MC-38 | MTT, cell count, colony formation | 100 µM, up to 10 days | – | cell proliferation and colony formation | no effect |
| CN1CCN(c2ccc(Nc3ncc4cc(C#N)c(=O)n(C5CCCC5)c4n3)cc2)CC1 | primary patient MCL, ibrutinib-sensitive and -resistant | Annexin V | 24 h | – | apoptosis onset concentration | 500 nM |
| NC1(C(=O)O)CC2CCC1C2 (stereo not drawn) | EG7 wild-type and GFP-transduced (IDO-negative) | tryptophan uptake | sodium-free, uptake 3 min, added: 3H-L-tryptophan | – | Ki | 12000 nM |
| NC(=O)c1ccc(-c2nc(-c3ccc4c(c3)OCO4)c(-c3ccccn3)[nH]2)cc1 | C2C12 cells | inhibitor, Western blot | 10 µM, 1 h, added: TGF-beta 5 ng/mL | – | Smad2 phosphorylation | inhibited |
| COC(=O)c1ccc(NC(=O)CNNc2nc3ccccc3c(=O)n2-c2ccccc2)cc1 | MCF7 | annexin V/PI staining | 2.5 µM, 24 h | – | necrotic cells | 9.28% |
| CC1(C(=O)Nc2ccc(OS(=O)(=O)C(F)(F)F)cc2)c2ccccc2-c2ccccc21 | HeLa | cell growth or viability, MTT | 100 µM, 24 h | – | inhibition | 32.4% |
| fibrinogen | K562 expressing αMβ2 | annexin V flow cytometry | 1 µM, 24 h, 37 °C | – | apoptotic cells | 3 ± 1% |
| COc1ccc([C@@H](O)[C@@H](C)Oc2ccc([C@H]3O[C@H](c4ccc(O[C@H](C)[C@H](O)c5ccc(OC)c(OC)c5)c(OC)c4)[C@H](C)[C@H]3C)cc2OC)cc1OC | HEK-293T | HIF-1 reporter gene | concentration not given, 24 h, hypoxia, 1% O2 | reference: normoxia | maximum inhibition | 103 ± 11% |
| CCc1c2c(nc3ccc(O)cc13)-c1cc3c(c(=O)n1C2)COC(=O)[C@]3(O)CC | U-87 MG, transferrin receptor blocked | XTT | concentration not given, 72 h, added: T7-PEG4-N3 10-fold molar excess, 1 h preincubation | – | viability | < 30% |
| COC(=O)c1ccc(N(C)c2nc(Cl)ccc2[N+](=O)[O-])cc1 | human tumour cell panel | cell growth, SRB | range over compounds, cells | – | GI50 | 1550 to 3000 nM |
| plasminogen | K562 expressing αMβ2 | annexin V flow cytometry | 1 µM, 24 h, 37 °C | – | apoptotic cells | 5 ± 2% |
| CC(=NNC(=S)NN=C(C(=NO)c1ccccc1)c1ccccc1)c1ccccc1C | MCF7 | Western blot, refers to: cleaved caspase-3 | IC50 concentration, 24 h | reference: untreated | relative protein level | 2.37 ± 0.05 |
| CCCCCCCCCCCCCCCCCCOc1ccccc1CC(=O)OCC[N+]1(C)CCCC1 | 58 cancer cell lines | – | 10 µM | – | mean growth inhibition | 70.4% |
| bacitracin | human monocyte-derived macrophages | – | 1 mg/mL, 120 h | reference: untreated | intracellular amyloid beta 40 retention | increased |
| C=CC(=O)Nc1cccc(N2C(=O)OC(C)c3cnc(Nc4ccc(N5CCN(C)CC5)cc4OC)nc32)c1 (stereo not drawn) | TMD8 | flow cytometry | 1000 nM, 48 h | – | G1 cells | ~82.7% |
| OO | rat DRG neurons | calcium increase, calcium imaging | 5 mM | – | responding neurons | 25.1% and ~25% |
| CCCCCCCCCCCCCCCCCCOc1ccccc1CC(=O)OCC[N+](CC)(CC)CC | 58 cancer cell lines | – | 10 µM | – | mean growth inhibition | 75.5% |
| N=C(N)c1ccc(C(=O)N2CCN(C(=O)c3cc(CN4CCN(C(=N)N)CC4)cc([N+](=O)[O-])c3)CC2)cc1 | mouse F9 cells | CHRM4 and SCN3A gene activation, activator, RT-PCR, refers to: CHRM4 and SCN3A mRNA | – | – | lowest active concentration | 5 to 10 µM |
| COc1ccc(N(C)c2nc(C(F)(F)F)ccc2CO)cc1 | human tumour cell panel | cell growth, SRB | range over compounds, cells | – | GI50 | 200 to 3250 nM |
| CC[C@H](C)[C@H](NC(=O)[C@H](CCCCN)NC(=O)[C@@H](NC(=O)[C@H](CCC(N)=O)NC(=O)[C@@H](N)CCCNC(=N)N)[C@@H](C)CC)C(=O)N[C@@H](Cc1c[nH]c2ccccc12)C(=O)N[C@@H](Cc1ccccc1)C(=O)N[C@@H](CCC(N)=O)C(=O)N[C@@H](CC(N)=O)C(=O)N[C@@H](CCCNC(=N)N)C(=O)N[C@@H](CCCNC(=N)N)C(=O)N[C@@H](CCSC)C(=O)N[C@@H](CCCCN)C(=O)N[C@@H](Cc1c[nH]c2ccccc12)C(=O)N[C@@H](CCCCN)C(=O)N[C@@H](CCCCN)C(N)=O | SK-MEL-2 | confocal Raman microscopy | 25 to 50 µM, room temperature, near plasma membrane | – | time to first intracellular detection | 2 to 3 min |
| COc1ccc(S(=O)(=O)Oc2ccc(NC(=O)c3ccccc3)cc2)cc1 | HeLa | cell growth or viability, MTT | 100 µM, 24 h | – | inhibition | 7.1% |
| O=C(O)CNC(=O)C(CS)Cc1ccccc1 (stereo not drawn) | human monocyte-derived macrophages | – | 10 µM, 120 h | reference: untreated | intracellular amyloid beta 40 retention | no effect |

| Molecule | cell line | assay | conditions | how to read | endpoint | value |
| --- | --- | --- | --- | --- | --- | --- |
| O=C(Nc1ccc(OS(=O)(=O)c2ccc(F)cc2)cc1)c1ccccc1 | HeLa | cell growth or viability, MTT | 100 µM, 24 h | – | inhibition | 16.5% |
| B1 | HeLa 705 | – | concentration not given, 24 h | reference: untreated | ATP level | decreased |
| CCCCS(=N)(=O)CCC(N)C(=O)O (stereo not drawn) | THLE-2 | – | 50 µM | reference: untreated cells, lower | intracellular GSH | ~2 fold |
| COc1ccc(C2=N[C@@H](c3ccc(Cl)cc3)[C@@H](c3ccc(Cl)cc3)N2C(=O)N2CCNC(=O)C2)c(OC(C)C)c1 | A2780 | cell proliferation, resazurin | 72 h | – | EC50 | 16800 nM |
| CNC(=O)c1ccc(N2C(=S)N(c3cnc(C#N)c(C(F)(F)F)c3)C(=O)C23CCC3)cc1F | LNCaP-abl | cell proliferation, inhibitor | 72 h, up to 100 µM tested | – | EC50 | > 100000 nM |
| CN(Cc1cnc2nc(N)nc(N)c2n1)c1ccc(C(=O)N[C@@H](CCC(=O)O)C(=O)O)cc1 | HBL-1 | cell viability, ATP luminescence | 72 h, folate-depleted medium | – | EC50 | 13 nM |
| NS(=O)(=O)c1ccc(NC(=O)CNNc2nc3ccccc3c(=O)n2-c2ccccc2)cc1 | MCF7 | annexin V/PI staining | 2.5 µM, 24 h, Early apoptosis | – | apoptotic cells | 6.11% |
| C#C[C@@]1(O)[C@@H](CO)O[C@@H](n2cc(Cl)c3c(N)ncnc32)[C@@H]1O | LOX IMVI | cell growth or viability, SRB | 48 h | – | GI50 | 59 nM |
| Cn1cc(Nc2nccc(-c3ccc4c(c3)CN(C3COC3)CC[C@H]4NC(=O)c3cn(C(C)(C)C)nn3)n2)cn1 | human B cells | refers to: stimulation-induced genes | 100 nM, 64 h, added: anti-IgM + CD40L + IL-4 | – | inhibition of gene upregulation | 6% |
| C=C[C@@]1(C)CC(=O)[C@]2(O)[C@@]3(C)[C@@H](O)CCC(C)(C)[C@@H]3[C@H](O)[C@H](OC(C)=O)[C@@]2(C)O1 | CHO-KOR GloSensor | cAMP level, agonist | – | – | EC90 | 2000 nM |
| CC/C(=N\NC(=O)NCc1cccc(O)c1)c1ccc(O)c(C)c1O | SK-OV-3 | cell growth, ATP assay, 3D culture | 4 days | – | EC50 | 3510 ± 260 nM |
| Cc1nc(Nc2ncc(C(=O)Nc3c(C)cccc3Cl)s2)cc(N2CCN(CCO)CC2)n1 | HT-29 | IL-8 secretion | 1 µg/mL, added: IL-1β 1000 ng/mL | – | maximum inhibition | 22% |
| Nc1nc(N)c(N=O)c(OCc2ccc(Cl)cc2)n1 | HT-29 | cell growth or viability, SRB | 72 h | – | GI50 | 59000 nM |
| COCc1ccc(Cl)nc1N(C)c1ccc(OC)cc1 | human tumour cell panel | cell growth, SRB | range over compounds, cells | – | GI50 | 200 to 3250 nM |
| C#C[C@@]1(O)[C@@H](CO)O[C@@H](n2cc(I)c3c(N)ncnc32)[C@@H]1O | DU-145 | cell growth or viability, SRB | 48 h | – | GI50 | 131 nM |
| COc1ccc(N(C)c2nc(Cl)ccc2[N+](=O)[O-])cc1OC | human tumour cell panel | cell growth, SRB | range over compounds, cells | – | GI50 | 15000 to 18000 nM |
| COc1ccc(S(=O)(=O)Oc2ccc(NC(=O)c3ccc(C)cc3)cc2)cc1 | HeLa | cell growth or viability, MTT | 100 µM, 24 h | – | inhibition | > 50% |
| COC1=C(OC)C(=O)C(CCCCCCCCCC[P+](c2ccccc2)(c2ccccc2)c2ccccc2)=C(C)C1=O | Pfa1 tamoxifen-inducible Gpx4 knockout | – | concentration not given | reference: decylubiquinone | fold concentration to prevent ferroptosis | 100 fold |
| CC1(C(=O)Nc2ccc(OS(=O)(=O)c3ccc(F)cc3)cc2)c2ccccc2-c2ccccc21 | HeLa | cell growth or viability, MTT | 100 µM, 24 h | – | inhibition | 23.5% |
| COc1nn2cc(-c3ccc(OC(F)(F)F)cc3)nc2s1 | washed human platelets | antagonist | 316 nM to 1 µM, 20 min preincubation, added: 200 µM PAR4-AP | – | platelet aggregation | inhibited |
| Cc1ccc(C(=O)Nc2ccc(OS(=O)(=O)c3ccc(F)cc3)cc2)cc1 | HeLa | cell growth or viability, MTT | 100 µM, 24 h | – | inhibition | 7.7% |
| COc1nn2cc(-c3cc4cc(OC(F)(F)F)ccc4n3C)nc2s1 | washed human platelets | antagonist | 10 µM, 10 min, added: γ-thrombin 40 nM | – | platelet aggregation | inhibited |

Some of these lines once more:
| Molecule | cell line | assay | conditions | how to read | endpoint | value |
| --- | --- | --- | --- | --- | --- | --- |
| COC1=C(OC)C(=O)C(CCCCCCCCCC[P+](c2ccccc2)(c2ccccc2)c2ccccc2)=C(C)C1=O | Pfa1 tamoxifen-inducible Gpx4 knockout | – | concentration not given | reference: decylubiquinone | fold concentration to prevent ferroptosis | 100 fold |
| CSCC[C@@H](N)C(=O)N[C@@H](Cc1c[nH]cn1)C(=O)N[C@@H](CCCNC(=N)N)C(=O)N1CCC[C@H]1C(=O)N1CCC[C@H]1C(=O)N[C@@H](CO)C(=O)N[C@@H](C(=O)NCC(=O)N[C@@H](CO)C(=O)N[C@H](CCCNC(=N)N)C(=O)N[C@@H](C(=O)N[C@H](Cc1ccc(O)cc1)C(=O)N[C@H](CO)C(=O)N[C@H](Cc1ccccc1)C(=O)O)C(C)C)[C@H](C)O | MC-38 | MTT, cell count, colony formation | 100 µM, up to 10 days | – | cell proliferation and colony formation | no effect |
| CCCCCCCCCCCCCCCCCCOc1ccccc1CC(=O)OCC[N+](CC)(CC)CC | 58 cancer cell lines | – | 10 µM | – | mean growth inhibition | 75.5% |
